# Results gathered from unrelated publications.
# Protocols differ between the studies behind these lines. ± marks the error that the study gave.
Substance,cell line,test,system,setting,how to read,endpoint,result
CCCCCCCCCCCCCNCC(=O)N(CC(=O)N(CCCCN)CC(=O)N(CCN)CC(=O)N(CC(N)=O)Cc1ccc(Cl)cc1)Cc1ccc(Cl)cc1,HepG2,"cytotoxicity, MTT",,72 h,,TD50,72 ± 24 µg/mL
C[C@@H](NC(=O)[C@]1(Cc2ccccc2)CCN1C(=O)OCc1ccccc1)C(N)=O,HEL,microscopic cell morphology,,,,minimum cytotoxic concentration,> 100 µM
O=C(Nc1nc2ccccc2[nH]1)c1cc(Cl)ccc1Cl,BV-2,,,24 h,,highest non-cytotoxic concentration,100 µM
Cc1ccc(C(=O)Nc2cccc(C(=O)O)c2)c(C)c1,BHK-21,"cell growth or viability, MTT",,"100 µM, serum-free",,viability,> 90%
Fc1cccc(/C=N/N=C/c2cccc(F)c2)c1,BV-2,,,24 h,,highest non-cytotoxic concentration,500 µM
C[C@H](NC(=O)[C@@]1(Cc2ccccc2)CCN1C(=O)OCc1ccccc1)C(=O)NC(C)(C)C,HEL,microscopic cell morphology,,,,minimum cytotoxic concentration,> 100 µM
Cc1cc(C)cc(C(=O)Nc2cc(Br)cc(C(F)(F)F)c2)c1,BHK-21,"cell growth or viability, MTT",,"100 µM, serum-free",,viability,48%
C=C(C[C@H](N)C(=O)O)C(=O)NCc1ccc([N+](=O)[O-])cc1,SK-BR-3,necrosis,,24 h,,EC50,0.339 µM
CC(=O)Oc1ccccc1C(=O)Nc1ncc([N+](=O)[O-])s1,J2 human intestinal enteroids,,,24 h,,CC50,51.2 µM
Cc1c(O)cc(C[C@]23C[C@H](C[C@H](C)O2)c2c4c(c(O)c(C)c2O3)CO[C@]2(CCC[C@H](C)O2)C4)c(C=O)c1O,NCI-H1975,cell growth or viability,,,,IC50,7.3 µM
C[C@H](NC(=O)[C@]1(Cc2ccccc2)CCN1C(=O)N[C@@H](C)c1ccccc1)C(N)=O,HEL,microscopic cell morphology,,,,minimum cytotoxic concentration,> 100 µM
CCCCCCCCCCCCCNCC(=O)N(CCc1c[nH]c2ccccc12)CC(=O)N(CCCCN)CC(=O)N(CCN)CC(=O)N(CCc1c[nH]c2ccccc12)CC(N)=O,HepG2,"cytotoxicity, MTT",,72 h,,TD50,85 ± 10 µg/mL
C[C@H](NC(=O)[C@]1(Cc2ccccc2)CCN1C(=O)OCc1ccccc1)C(=O)NC1CCCCC1,HEL,microscopic cell morphology,,,,minimum cytotoxic concentration,> 100 µM
C[C@H]1[C@H](C)CC[C@]2(C(=O)O)CC[C@]3(C)C(=CC[C@@H]4[C@@]5(C)CC[C@H](O)C(C)(C)[C@@H]5CC[C@]43C)[C@H]12,MARC145,"cell growth or viability, MTT",,48 h,,CC50,65.3 µM
Cc1ccc(S(=O)(=O)[O-])cc1.Nc1c([I+]c2ccccc2)c(=O)oc2ccccc12,BHK-21,MTT,,,,maximal non-toxic concentration,1 µg/mL
CCCCCCCCCCCCCNCC(=O)N(CC(=O)N(CCCCN)CC(=O)N(CCN)CC(=O)N(CC(N)=O)Cc1ccc(F)cc1)Cc1ccc(F)cc1,human red blood cells,hemolysis,,1 h,,HC10,59 ± 22 µg/mL
COc1ccc(C(=O)NC(=S)Nc2cc([N+](=O)[O-])ccc2Cl)cc1OC,BHK-21,"cell growth or viability, MTT",,"100 µM, serum-free",,viability,39%
CN(C)c1cccc(C(=O)Nc2nc3ccccc3[nH]2)c1,BV-2,,,24 h,,highest non-cytotoxic concentration,300 µM
CONC(=N)c1ccc(-c2ccc(-c3ccc(C(=N)NOC)cn3)o2)cc1,KLE,cell growth or viability,,"50 µM, 72 h",,viability,16%
CC1=C(CO)C(=O)O[C@@H]([C@@H](C)[C@H]2CC[C@H]3[C@@H]4C[C@H]5O[C@]56[C@@H](O)C=CC(=O)[C@]6(CO)[C@H]4CC[C@]23C)C1,B16-F10 melanoma,"cell viability, MTS",,,,IC50,11.6 ± 0.19 µM
ILPWKWPWWPWRR,human red blood cells,haemolysis,peptide,"4 h, pH 7.4, 25 °C",,minimum haemolytic concentration,125 µg/mL
CCCCCCCCCCCCCNCC(=O)N(CC(=O)N(CCCCN)CC(=O)N(CCCCN)CC(=O)N(CC(N)=O)C1CCCCC1)C1CCCCC1,HepG2,"cytotoxicity, MTT",,72 h,,TD50,165 ± 97 µg/mL
C=C(C[C@H](N)C(=O)O)C(=O)Nc1ccc(F)cc1,SK-BR-3,necrosis,,24 h,,EC50,0.182 µM
Nc1nc(O)c2ncn(COC(CO)CO)c2n1,HEL,cell morphology,,,,minimum cytotoxic concentration,> 350 µM
C=C(C[C@H](N)C(=O)O)C(=O)Nc1ccc(Cl)cc1,SK-BR-3,necrosis,,24 h,,EC50,263 µM
CN1CCC2(CC1)C/C(=N\N=C\c1ccc(O)cc1)c1ccccc1O2,PC-3,"cell growth, MTT",,48 h,,IC50,2.37 ± 0.09 µM
Cc1cc(C)cc(C(=O)Nc2cc([N+](=O)[O-])ccc2Cl)c1,BHK-21,"cell growth or viability, MTT",,"100 µM, serum-free",,viability,47%
CC(C)(C)[C@H](NC(=O)C(F)(F)F)C(=O)N1C[C@@H]2CCC[C@@H]2[C@H]1C(=O)N[C@H](C#N)C[C@@H]1CCNC1=O,Vero E6 cells,,,"concentration not given, 24 (unit not given)",,cytotoxicity,not toxic
C[C@H](NC(=O)[C@]1(Cc2ccccc2)CCN1C(=O)OCC1c2ccccc2-c2ccccc21)C(N)=O,HEL,microscopic cell morphology,,,,minimum cytotoxic concentration,20 µM
CC(C)C[C@@H](NC(=O)CNC(=O)[C@@H](Cc1c[nH]c2ccccc12)NC(=O)[C@@H](CCCNC(=N)N)NC(=O)[C@@H](N)CCC(N)=O)C(=O)N[C@@H](CO)C(=O)N[C@H](CC(C)C)C(=O)N[C@@H](C)C(=O)N1CCC[C@H]1C(=O)N[C@@H](Cc1ccc(O)cc1)C(=O)N[C@H](CCCCN)C(=O)N[C@@H](CC(N)=O)C(=O)N[C@@H](Cc1ccccc1)C(=O)N[C@H](CCCNC(=N)N)C(=O)N[C@H](CCCNC(=N)N)C(=O)N[C@H](CC(C)C)C(=O)N[C@@H](CO)C(N)=O,human red blood cells,,,"128 µM, 18 h, 37 °C",relative to: Triton X-100,hemolysis,< 1%
O=C(Nc1nc2ccccc2[nH]1)c1cc(C(F)(F)F)ccc1C(F)(F)F,BV-2,,,24 h,,highest non-cytotoxic concentration,60 µM
Polymyxin B,human red blood cells,,,"4 h, pH 7.4",,minimal haemolytic concentration,2000 µg/mL
polymyxin B,human red blood cells,,,"4 h, pH 7.4, 25 °C",,minimum haemolytic concentration,> 2000 µg/mL
C[C@H](NC(=O)[C@@]1(Cc2ccccc2)CCN1C(=O)OCc1ccccc1)C(=O)N(C)C,HEL,microscopic cell morphology,,,,minimum cytotoxic concentration,> 100 µM
Cc1ccc(C(=O)NC(=S)Nc2ccc(C(=O)O)cc2)c(C)c1,BHK-21,"cell growth or viability, MTT",,"100 µM, serum-free",,viability,> 90%
O=C(c1cc(Cc2n[nH]c(=O)c3ccccc23)ccc1F)N1CCN(C(=O)C2CC2)CC1,SK-BR-3,necrosis,,24 h,,EC50,> 316 µM
CC(C)CNC(=O)[C@H](C)NC(=O)[C@]1(Cc2ccccc2)CCN1C(=O)OCc1ccccc1,HEL,microscopic cell morphology,,,,minimum cytotoxic concentration,> 100 µM
C=C(C[C@H](N)C(=O)O)C(=O)N1CCCCC1,SK-BR-3,necrosis,,24 h,,EC50,0.0724 µM
COC(=O)c1[nH]cc2c1[C@]1(CNc3ccc(Cl)cc31)c1[nH]c3ccc(Cl)cc3c1-2 (racemic),HepG2,cytotoxicity,,,,CC50,> 50 µM
COc1ccc(-c2cn(-c3nc(O)c4ncn([C@H]5C[C@H](O)[C@@H](CO)O5)c4n3)nn2)cc1,HEL,cell morphology,,,,minimum cytotoxic concentration,> 240 µM
CC(=O)Oc1ccccc1C(=O)Nc1ncc([N+](=O)[O-])s1,BV-2,,,"80, 160 µM, 24 h",,viability,decreased
CCCCCCCCCCCCCNCC(=O)N(CC(=O)N(CCCCN)CC(=O)N(CCN)CC(=O)N(CC(N)=O)c1ccccc1)c1ccccc1,HepG2,"cytotoxicity, MTT",,72 h,,TD50,81 ± 25 µg/mL
O=C(Nc1nc2ccccc2[nH]1)c1cc(Cl)cc(Cl)c1,BV-2,,,24 h,,highest non-cytotoxic concentration,800 µM
CCCCc1cn(-c2nc(O)c3ncn([C@H]4C[C@H](O)[C@@H](CO)O4)c3n2)nn1,HEL,cell morphology,,,,minimum cytotoxic concentration,> 270 µM
CCCCCCCCCCCCCNCC(=O)N(CC(=O)N(CCCCN)CC(=O)N(CCN)CC(=O)N(CC(N)=O)Cc1ccc(I)cc1)Cc1ccc(I)cc1,HepG2,"cytotoxicity, MTT",,72 h,,TD50,72 ± 24 µg/mL
O=C1Nc2ccc(Cl)cc2[C@@](C#CC2CC2)(C(F)(F)F)O1,"Caco-2 cells, CAR-transfected",item: CYP2B6,,"10 µM, 24 h, unit not given",relative to: vector control,expression level,5.63 ± 1.49
CCCCCCN(CCCCCC)CC(=O)N(CC(=O)N(CCCCN)CC(=O)N(CCN)CC(=O)N(CC(N)=O)C1CCCCC1)C1CCCCC1,HepG2,"cytotoxicity, MTT",,72 h,,TD50,> 200 µg/mL
Nc1ccn(C[C@@H](CO)OCP(=O)(O)O)c(=O)n1,HFF primary foreskin fibroblasts,"cell viability, CellTiter-Glo",,,,CC50,110 µM
CCCCCCCCCCCCCNCC(=O)N(CC(=O)N(CCCC[N+](C)(C)C)CC(=O)N(CC[N+](C)(C)C)CC(=O)N(CC(N)=O)C1CCCCC1)C1CCCCC1,HepG2,"cytotoxicity, MTT",,72 h,,TD50,> 200 µg/mL
C[C@H](NC(=O)[C@]1(Cc2ccccc2)CCN1C(=O)Oc1cccc2ccccc12)C(N)=O,HEL,microscopic cell morphology,,,,minimum cytotoxic concentration,> 100 µM
CCCCOc1c2cc(C(=O)Nc3cc(C(=O)O)cc(C(=O)OCc4ccccc4)c3)cc1Cc1cc(C(=O)Nc3cc(C(=O)O)cc(C(=O)OCc4ccccc4)c3)cc(c1OCCCC)Cc1cc(C(=O)Nc3cc(C(=O)O)cc(C(=O)OCc4ccccc4)c3)cc(c1OCCCC)Cc1cc(C(=O)Nc3cc(C(=O)O)cc(C(=O)OCc4ccccc4)c3)cc(c1OCCCC)C2,MT2,cell growth or viability,,,,IC50,> 50 µM
CCN(CC)Cc1cc(Nc2ccnc3cc(Cl)ccc23)ccc1O,HepG2 empty vector control,"cell viability, MTT",,48 h,,IC50,18.9 µM
Cc1nc(C(NC(=O)c2ccc(-c3ccc(Cl)cc3)[nH]2)C2CCCCN2)sc1CO (mixture of isomers),U87.CD4.CXCR4,"cell growth or viability, XTT",,72 h,,CC50,~25 µM
CC(C)(C)c1ccc(C(=O)Nc2ccc3ccn(Cc4ccc(C(=O)O)cc4)c3c2)cc1,HepG2,"qPCR, item: CYP7A1",,"10 µM, 12 h, FXR target gene",,mRNA level,decreased
